Experimental data pooled from the literature.
Parts stem from different laboratories: compare values within a part only. Positions count from the first letter of the parent shown.

Series 1 — target: CREB3, bZIP domain (human); technique: DHFR protein complementation; matrix: yeast; reference: wild-type JUN-FOS pair; reading: higher = stronger binding
Notes: single substitutions, most at no-binding floor
Starting sequence: JUN, bZIP domain (human); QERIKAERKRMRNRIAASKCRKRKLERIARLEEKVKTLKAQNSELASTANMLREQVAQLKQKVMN; partner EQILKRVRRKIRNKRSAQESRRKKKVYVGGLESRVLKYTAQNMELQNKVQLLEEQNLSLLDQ
Change | binding fitness
E32V | -1.46 natural log
E54T | -1.53 natural log
K39N | -1.46 natural log
R30C | -1.59 natural log
A40C | -1.5 natural log
V56S | -1.57 natural log
K34Y | -1.48 natural log
A46Q | -1.28 natural log
R53A | -1.47 natural log
A46E | -1.13 natural log
E32T | -1.3 natural log

Series 2 — technique: RNA Bind-n-Seq; molecule type: RNA; matrix: in vitro; concentration: 200 nM; notes: whole 134-nt RNA, ends assumed; added: 150 mM KCl; reference: input library; reading: higher = stronger binding
Target: Fragile X messenger ribonucleoprotein 1, C-terminal low-complexity region (Fmr1, Mus musculus, UniProt P35922)
All sequences stand within: GGGAGUUCUACAGUCCGACGAUC … UGGAAUUCUCGGGUGUCAAGG
Strand | log2 enrichment
UCCUGUGCUACACAUCGUAUGUACCGAAUCGGGGUUUUUUGGUUUUUUGGGUUUUUUGGAAAGUAUUAUGUUACGCCGUUCGGAUCUGCA | -0.0413
UACAGGAGCUUCCUGGGACUGACCUGCCUGAUGCAAAUUUCUACUCGGACGGAAGACUUCAUCAUUGACACCCUCGAGCUUCGAAGUGAC | -0.0763
CCUCAAGUCCUGUGCUACACAUCGUAUGUACCGAAUCGGUGGGGUGGUGGGGAAAGUAUUAUGUUACGCCGUUCGGAUCUGCACUUCCAG | 0.432
GCAGGAAGUAAAAACAAAUGGAAAUGCUUCGGAUAGUGGCAGGGGUGGGGGUUGCUAAGGAAAGGGUGGGAUGGGAGUGCGUAAAGAGUU | 0.296
CCUGUGCUACACAUCGUAUGUACCGAAUCGGGGUUUUUUGGGUUUUUUGGGGUUUUUUGGAAAGUAUUAUGUUACGCCGUUCGGAUCUGC | -0.198
UAAAUUCAUCUGAAAAUGGUGAGGACAGGCACAAACGCAAAGAAAGAAAGUCAUCAAGAGGCAGAAGUCACUCAAGAUCUAGGUCUCGUG | -1.49
UGGCCCUGGUGGCAUGCGGGGAGGAAGAGGUGGCCUCAUGGAUCGUGGUGGUCCCGGUGGAAUGUUCAGACGUGGCCGUGGUGGAGACAG | 0.011
UAACUUUAGAGGAGGAUCUGAUGGAUAUGGCAGUGGACGUGGAUUUCGGGAUGGCUAUAAUGGGUAUGGAGGAGGACCUGGAGGUGGCAA | 0.179
UCCUGUGCUACACAUCGUAUGUACCGAAUCAAACCCCCAAACCCCCCCAAACCCCCAAAAAAGUAUUAUGUUACGCCGUUCGGAUCUGCA | -0.105
UCCUGUGCUACACAUCGUAUGUACCGAAUCGGGGAAAAAAGGGAAAAAAGGGAAAAAAGGAAAGUAUUAUGUUACGCCGUUCGGAUCUGC | 0.0431
AAGUCCUGUGCUACACAUCGUAUGUACCGAAUCGGGAAAAGGAAAAGGGAAAAGGGGAAAGUAUUAUGUUACGCCGUUCGGAUCUGCACU | -0.253
UUUGCAGGAUUAAUCACUCCUGAAGAUCGGAAAUAUGGAACAACAAAUCUUCACUUAGAUGUAUCUGAUGCAGCUAAUGUCAUGGUCUAU | -2.21
CAAGUCCUGUGCUACACAUCGUAUGUACCGAAUCGGGGAAAGGAAAGGGAAAGGGGAAAGUAUUAUGUUACGCCGUUCGGAUCUGCACUU | 0.349
GUAAGUGUGGCAAUGUGAACUGAAGCUGAUGGGCUGAGAACAUGGACUGAGCUUGUGGUGUGCUUUGCAGGAGGACUUGAAGCAGAGUUC | 1

Series 3 — technique: protein-binding microarray; molecule type: hairpin DNA; matrix: in vitro; concentration: not given; reference: not given; reading: higher = stronger binding
Target: Cellular tumor antigen p53, full length (TP53, Homo sapiens, UniProt P04637, residues 1-393)
Notes: whole hairpin DNA, median over replicate spots
Strand | median fluorescence
CCACACGTGGGGGCATGCCTTCCTAGGCATGCCCCCACGTGTGGACACTC | 9900 a.u.
CGGATATGCCCGGGCATGTCTCCTGACATGCCCGGGCATATCCGACACTC | 15300 a.u.
CCACACGTCGTGGCATGCCTTCCTAGGCATGCCACGACGTGTGGACACTC | 7520 a.u.
CCACACGTGGTGGCATGCCTTCCTAGGCATGCCACCACGTGTGGACACTC (5mC at 38) | 7430 a.u.
CGGACGTGCCCGGGCATGTCTCCTGACATGCCCGGGCACGTCCGACACTC (5mC at 5 39) | 17900 a.u.
CCACACCGGGTGGCATGCCTTCCTAGGCATGCCACCCGGTGTGGACACTC (5mC at 7 37) | 6600 a.u.
CGGAAATGCCCGGGCATGTCTCCTGACATGCCCGGGCATTTCCGACACTC | 12800 a.u.
CCACACGTGGTGGCGTGCCTTCCTAGGCACGCCACCACGTGTGGACACTC | 4820 a.u.

Series 4 — technique: DHFR PCA, deep sequencing; matrix: yeast; added: (+)-ABA 58 µM; reference: wild-type fitted maximum; reading: higher = stronger binding
Target: ABI1, truncated, D143A, DHFR fusion (Arabidopsis thaliana)
Notes: methotrexate growth selection, single substitutions
Starting sequence: PYL1, truncated, DHFR fusion (Arabidopsis thaliana); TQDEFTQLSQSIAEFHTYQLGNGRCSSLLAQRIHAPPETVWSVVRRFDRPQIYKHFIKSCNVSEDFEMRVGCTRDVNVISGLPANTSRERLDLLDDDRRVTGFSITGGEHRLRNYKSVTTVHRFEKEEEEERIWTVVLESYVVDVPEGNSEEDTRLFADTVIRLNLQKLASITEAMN; partner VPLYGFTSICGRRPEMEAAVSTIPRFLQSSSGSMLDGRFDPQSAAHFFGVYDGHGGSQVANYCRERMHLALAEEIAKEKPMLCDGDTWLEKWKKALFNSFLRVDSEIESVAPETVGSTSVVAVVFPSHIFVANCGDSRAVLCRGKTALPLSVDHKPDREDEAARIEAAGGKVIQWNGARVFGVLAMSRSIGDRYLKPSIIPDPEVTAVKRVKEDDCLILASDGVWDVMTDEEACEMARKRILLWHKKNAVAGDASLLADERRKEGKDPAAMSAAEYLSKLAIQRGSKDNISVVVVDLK
Change | relative binding score [%]
H55F | 76.5
S26N | 75.3
Q51N | 53.6
Q31S | 25.8
R111G | 23.2
S104T | 92.1
R46T | 65.9
V118Q | 51.8
T106P | 5.14
S87E | 6.63
S87K | -10.4
E131Y | 87.3

Series 5 — target: CCNE1, cyclin fold, Cln2 fusion (human); technique: yeast growth competition, sequencing; matrix: yeast; notes: strong parent motif; reference: not given; reading: higher = stronger binding
Starting sequence: RBL2 docking peptide (human); STTRRRLFVENDS; partner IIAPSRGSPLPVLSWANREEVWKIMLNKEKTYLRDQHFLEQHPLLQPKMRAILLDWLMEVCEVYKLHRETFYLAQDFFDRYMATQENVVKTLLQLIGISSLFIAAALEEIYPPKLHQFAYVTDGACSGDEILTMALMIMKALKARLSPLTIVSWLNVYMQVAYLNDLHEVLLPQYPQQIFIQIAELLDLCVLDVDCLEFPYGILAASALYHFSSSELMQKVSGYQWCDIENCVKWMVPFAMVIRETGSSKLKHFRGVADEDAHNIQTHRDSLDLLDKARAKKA
Change | normalised enrichment score
E10N | 4.82
D12S | 4.57
S1D | 4.48
F8T | -0.0337
S13T | 5.67
V9H | 5.86
S1I | 5
T2C | 5.44
V9E | 5.67

Series 6 — target: UBE2Q1 UBC core domain (UniProt Q7Z7E8); technique: yeast two-hybrid; matrix: yeast; notes: mostly zero background; reference: not given; reading: higher = stronger interaction
B1: RNF25 RING domain (UniProt Q96BH1); chain LTDNNIPHGQCVICLYGFQEKEAFTKTPCYHYFHCHCLARYIQHMEQELKAQGQEQEQERQHATTKQKAVGVQCPVCREPLVYDLASL
B2: PHF21A RING domain (UniProt Q96BD5); chain SPTSTDGDIHEDFCSVCRKSGQLLMCDTCSRVYHLDCLDPPLKTIPKGMWICPRCQDQMLKKEEAIPW
B3: ZNF598 RING domain (UniProt Q86UK7); chain AAAPERGGGSCVLCCGDLEATALGRCDHPVCYRCSTKMRVLCEQRYCAVCREELRQVVFGK
B4: TRIM8 RING domain (UniProt Q9BZR9); chain WKNCFEEELICPICLHVFVEPVQLPCKHNFCRGCIGEAWAKDSGLVRCPECNQAYNQKPGLE
B5: TRIM72 RING domain (UniProt Q6ZMU5); chain APGLLHQELSCPLCLQLFDAPVTAECGHSFCRACLGRVAGEPAADGTVLCPCCQAPTRPQALST
B6: CUL9 RING domain (UniProt Q8IWT3); chain AQAVPVRPDHCPVCVSPLGCDDDLPSLCCMHYCCKSCWNEYLTTRIEQNLVLNCTCPIADCPAQPTGAFIR
Construct (chain): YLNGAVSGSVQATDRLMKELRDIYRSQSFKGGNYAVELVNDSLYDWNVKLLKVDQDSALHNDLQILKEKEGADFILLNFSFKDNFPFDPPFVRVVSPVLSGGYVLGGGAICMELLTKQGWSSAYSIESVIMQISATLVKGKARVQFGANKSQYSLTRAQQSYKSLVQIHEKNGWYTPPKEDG
Sequence | lacZ reporter activity
B1 (RNF25 RING domain) | 0
B2 (PHF21A RING domain) | 0
DAIPSLSECQCGICMEILVEPVTLPCNHTLCKPCFQSTVEKASLCCPFCRRRVSSWTRYH (RNF168 RING domain (UniProt Q8IYW5)) | 0
B3 (ZNF598 RING domain) | 0
QHHELTSLFECPVCFDYVLPPILQCQAGHLVCNQCRQKLSCCPTCRGALTPSIRNL (SIAH2 RING domain (UniProt O43255)) | 0
QLRRLQEERTCKVCMDKEVSIVFIPCGHLVVCKDCAPSLRKCPICRSTIKGTVRTF (BIRC3 RING domain (UniProt Q13489)) | 0
B4 (TRIM8 RING domain) | 0
B5 (TRIM72 RING domain) | 0
KTLSRFGIQPCSICLGDAKDPVCLPCDHVHCLRCLRAWFASEQMICPYCLTALPDEFSPA (RNF213 RING domain (UniProt Q63HN8)) | 0
PEELQAMDNVCIICREEMVTGAKRLPCNHIFHTSCLRSWFQRQQTCPTCRMDVLRASLPA (SYVN1 RING domain (UniProt Q86TM6)) | 0
B6 (CUL9 RING domain) | 0
DDENSDNSNECVVCLSDLRDTLILPCRHLCLCTSCADTLRYQANNCPICRLPFRALLQIR (MGRN1 RING domain (UniProt O60291)) | 0
RLTMMWEEVTCPICLDPFVEPVSIECGHSFCQECISQVGKGGGSVCPVCRQRFLLKNLRP (TRIM21 RING domain (UniProt P19474)) | 0

Some of these lines once more (series 4):
Change | relative binding score [%]
Q51N | 53.6
Q31S | 25.8
R111G | 23.2
S104T | 92.1
R46T | 65.9
V118Q | 51.8
T106P | 5.14
S87E | 6.63
S87K | -10.4
